Measurements gathered from unrelated publications.
VHL/BRD9: VHL/BRD9 (Homo sapiens, UniProt P40337+Q9H8M2)
Sequence of UniProt P40337 (whole entry, looked up): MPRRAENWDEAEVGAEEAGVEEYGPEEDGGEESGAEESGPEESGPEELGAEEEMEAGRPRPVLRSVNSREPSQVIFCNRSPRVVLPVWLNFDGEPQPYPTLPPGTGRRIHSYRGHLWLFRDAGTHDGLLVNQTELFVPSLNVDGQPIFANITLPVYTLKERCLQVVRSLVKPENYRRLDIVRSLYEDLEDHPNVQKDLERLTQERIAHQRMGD
Sequence of UniProt Q9H8M2 (whole entry, looked up): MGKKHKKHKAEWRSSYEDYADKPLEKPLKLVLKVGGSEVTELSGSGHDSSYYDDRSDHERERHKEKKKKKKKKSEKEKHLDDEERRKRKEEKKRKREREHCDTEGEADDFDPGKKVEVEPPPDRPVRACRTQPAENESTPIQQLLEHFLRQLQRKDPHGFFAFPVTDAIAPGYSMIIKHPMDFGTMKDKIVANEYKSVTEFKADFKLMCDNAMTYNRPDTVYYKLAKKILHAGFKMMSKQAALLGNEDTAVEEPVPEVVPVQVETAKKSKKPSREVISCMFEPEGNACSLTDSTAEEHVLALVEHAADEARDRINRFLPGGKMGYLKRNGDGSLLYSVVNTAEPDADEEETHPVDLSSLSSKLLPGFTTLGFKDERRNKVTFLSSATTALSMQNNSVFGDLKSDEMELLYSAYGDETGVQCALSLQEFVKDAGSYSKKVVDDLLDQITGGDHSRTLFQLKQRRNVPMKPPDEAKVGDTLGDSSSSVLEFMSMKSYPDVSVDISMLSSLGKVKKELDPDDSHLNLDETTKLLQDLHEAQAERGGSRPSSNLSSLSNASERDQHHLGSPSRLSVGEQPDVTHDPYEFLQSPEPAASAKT
CALCR: Calcitonin receptor (CALCR, Homo sapiens, UniProt P30988)
Sequence of UniProt P30988 (whole entry, looked up): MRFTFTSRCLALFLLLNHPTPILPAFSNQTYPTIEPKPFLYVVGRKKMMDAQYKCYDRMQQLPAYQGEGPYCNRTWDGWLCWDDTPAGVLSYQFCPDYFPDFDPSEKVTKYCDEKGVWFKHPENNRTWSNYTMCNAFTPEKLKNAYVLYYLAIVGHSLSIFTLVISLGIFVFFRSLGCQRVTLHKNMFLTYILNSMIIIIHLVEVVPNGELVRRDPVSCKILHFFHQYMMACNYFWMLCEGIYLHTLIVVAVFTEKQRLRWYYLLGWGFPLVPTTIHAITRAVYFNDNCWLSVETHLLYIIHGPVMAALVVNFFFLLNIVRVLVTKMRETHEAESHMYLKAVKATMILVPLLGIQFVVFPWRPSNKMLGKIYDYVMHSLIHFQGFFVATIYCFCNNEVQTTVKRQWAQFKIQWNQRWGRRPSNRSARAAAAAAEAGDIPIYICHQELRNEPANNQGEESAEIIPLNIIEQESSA
Sequence of UniProt P25103 (whole entry, unmodified, looked up): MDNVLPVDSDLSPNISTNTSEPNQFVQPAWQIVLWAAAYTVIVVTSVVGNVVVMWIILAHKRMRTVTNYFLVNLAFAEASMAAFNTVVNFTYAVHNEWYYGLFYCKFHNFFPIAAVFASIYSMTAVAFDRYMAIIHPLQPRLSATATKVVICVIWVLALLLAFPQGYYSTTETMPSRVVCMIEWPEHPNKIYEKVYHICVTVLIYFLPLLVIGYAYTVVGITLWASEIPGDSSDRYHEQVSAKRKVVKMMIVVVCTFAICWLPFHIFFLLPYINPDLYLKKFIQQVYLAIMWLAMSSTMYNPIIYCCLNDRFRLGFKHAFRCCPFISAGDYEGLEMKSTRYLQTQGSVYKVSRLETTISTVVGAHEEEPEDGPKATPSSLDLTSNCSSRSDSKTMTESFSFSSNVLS
Sequence of UniProt Q96GD4 (whole entry, looked up): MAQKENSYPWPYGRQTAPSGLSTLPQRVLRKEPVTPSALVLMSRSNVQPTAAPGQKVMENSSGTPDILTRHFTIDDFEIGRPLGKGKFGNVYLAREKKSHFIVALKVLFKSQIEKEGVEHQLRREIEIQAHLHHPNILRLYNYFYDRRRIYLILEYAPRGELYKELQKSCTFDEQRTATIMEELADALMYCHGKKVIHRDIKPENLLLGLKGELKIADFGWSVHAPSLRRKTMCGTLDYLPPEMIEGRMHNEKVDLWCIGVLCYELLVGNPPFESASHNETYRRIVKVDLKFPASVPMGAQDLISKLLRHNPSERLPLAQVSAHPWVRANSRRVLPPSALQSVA
Sequence of UniProt Q8TDS7 (whole entry, looked up): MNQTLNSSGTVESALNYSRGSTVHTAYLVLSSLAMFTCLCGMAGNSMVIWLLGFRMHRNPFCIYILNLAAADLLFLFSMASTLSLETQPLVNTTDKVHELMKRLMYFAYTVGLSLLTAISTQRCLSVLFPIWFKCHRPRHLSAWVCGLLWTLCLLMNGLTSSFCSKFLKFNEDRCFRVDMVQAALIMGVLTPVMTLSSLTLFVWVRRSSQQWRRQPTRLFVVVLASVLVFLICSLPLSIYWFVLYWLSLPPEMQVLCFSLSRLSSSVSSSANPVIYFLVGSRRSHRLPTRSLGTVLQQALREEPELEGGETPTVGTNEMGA
Sequence of UniProt Q04206 (whole entry, looked up): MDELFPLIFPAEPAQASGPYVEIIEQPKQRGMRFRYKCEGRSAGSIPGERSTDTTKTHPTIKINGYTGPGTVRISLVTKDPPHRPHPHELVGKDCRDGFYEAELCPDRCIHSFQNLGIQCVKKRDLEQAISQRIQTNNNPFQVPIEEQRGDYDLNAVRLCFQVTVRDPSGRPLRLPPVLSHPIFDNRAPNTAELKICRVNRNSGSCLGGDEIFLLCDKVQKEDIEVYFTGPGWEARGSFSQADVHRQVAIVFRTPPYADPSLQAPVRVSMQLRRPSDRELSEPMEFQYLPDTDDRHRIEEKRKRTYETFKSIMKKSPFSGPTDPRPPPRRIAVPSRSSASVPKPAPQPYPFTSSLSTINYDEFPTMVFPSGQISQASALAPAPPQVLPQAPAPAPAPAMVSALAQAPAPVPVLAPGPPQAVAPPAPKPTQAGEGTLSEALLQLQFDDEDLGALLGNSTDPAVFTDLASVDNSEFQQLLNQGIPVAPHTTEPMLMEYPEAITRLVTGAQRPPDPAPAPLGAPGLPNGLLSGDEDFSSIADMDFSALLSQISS
Sequence of UniProt P32214 (whole entry, looked up): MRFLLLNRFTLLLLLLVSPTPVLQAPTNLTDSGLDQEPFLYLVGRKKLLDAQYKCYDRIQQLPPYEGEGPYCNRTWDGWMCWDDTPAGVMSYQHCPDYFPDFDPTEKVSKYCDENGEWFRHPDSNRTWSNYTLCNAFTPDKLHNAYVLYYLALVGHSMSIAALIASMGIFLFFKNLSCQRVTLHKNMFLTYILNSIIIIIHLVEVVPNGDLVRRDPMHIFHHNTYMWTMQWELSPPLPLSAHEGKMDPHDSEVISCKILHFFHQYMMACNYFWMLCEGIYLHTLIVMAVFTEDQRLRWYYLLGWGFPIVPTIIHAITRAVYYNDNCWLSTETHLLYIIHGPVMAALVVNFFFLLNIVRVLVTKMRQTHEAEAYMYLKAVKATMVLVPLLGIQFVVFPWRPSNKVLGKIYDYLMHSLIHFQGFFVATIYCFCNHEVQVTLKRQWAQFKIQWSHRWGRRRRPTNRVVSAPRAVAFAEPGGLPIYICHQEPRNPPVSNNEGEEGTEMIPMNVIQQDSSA
Sequence of UniProt P61981 (whole entry, looked up): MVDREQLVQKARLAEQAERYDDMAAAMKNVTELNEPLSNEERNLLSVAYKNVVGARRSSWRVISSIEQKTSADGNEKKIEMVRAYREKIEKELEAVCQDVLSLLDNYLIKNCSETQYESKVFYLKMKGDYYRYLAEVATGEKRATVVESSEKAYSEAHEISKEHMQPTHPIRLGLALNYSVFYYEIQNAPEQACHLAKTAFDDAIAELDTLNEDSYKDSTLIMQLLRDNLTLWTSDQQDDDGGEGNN
Sequence of UniProt P62136 (whole entry, looked up): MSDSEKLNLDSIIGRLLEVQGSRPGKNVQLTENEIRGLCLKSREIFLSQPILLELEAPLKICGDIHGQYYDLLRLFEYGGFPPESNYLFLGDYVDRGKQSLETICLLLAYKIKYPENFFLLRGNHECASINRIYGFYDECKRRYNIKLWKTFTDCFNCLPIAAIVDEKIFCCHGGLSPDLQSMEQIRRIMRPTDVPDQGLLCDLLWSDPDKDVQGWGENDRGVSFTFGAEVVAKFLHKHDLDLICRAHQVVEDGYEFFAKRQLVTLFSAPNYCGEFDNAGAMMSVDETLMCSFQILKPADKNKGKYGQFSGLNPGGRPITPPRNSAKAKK

`CC(C)(C(=O)N1CCC(Nc2nc3c(c(=O)[nH]2)CCCC3)CC1)c1ccc(Cl)cc1` gave an EC50 of 0.0921 µM (MRGPRD (Homo sapiens, UniProt Q8TDS7); miniGq recruitment, agonist, BRET1; HEK293T).
For `CN1CCN(S(=O)(=O)c2ccc(-c3ccc4ncnc(Nc5ccccc5)c4c3)cc2)CC1`, the EC50 was over 15 µM (Leishmania major; intracellular amastigote growth, luciferase; RAW264.7 macrophages).
The EC50 of `Cc1ncsc1-c1ccc(CNC(=O)C2CC(O)CN2C(=O)C(N)C(C)(C)C)cc1` (stereo not shown) is reported as over 30 µM (Aurora kinase B (AURKB, Homo sapiens, UniProt Q96GD4); NanoBRET target engagement; HEK293 expressing NanoLuc fusion; 2 h).
With `Cc1ncsc1-c1ccc(CNC(=O)[C@@H]2C[C@@H](O)CN2C(=O)[C@@H](NC(=O)C2(F)CC2)C(C)(C)C)c(OCCC2CCN(c3nc(NCC(C)(C)C4(O)CCOC4)nc(N4CCC[C@H]4Cn4ccnn4)n3)CC2)c1` (stereo partly shown) the EC50 was 0.051 µM (VHL/BRD9; ternary complex formation, NanoBiT; HEK293T; 2 h, with: MLN4924 2 µM).
For `CC[C@H](C)[C@@H](C(=O)N[C@@H](CC(C)C)C(=O)N[C@@H](CO)C(=O)N[C@@H](CO)C(=O)N[C@H](C(=O)N[C@@H](CCC(=O)O)C(=O)N[C@H](C(=O)NCC(=O)N[C@@H](CO)C(=O)N[C@@H](CO)C(=O)N[C@H](C(=O)N1C[C@H](O)C[C@H]1C(N)=O)[C@@H](C)O)C(C)C)[C@@H](C)O)N(C)C(=O)[C@H](C)NC(=O)CN(C)C(=O)[C@H](Cc1ccccc1)NC(=O)[C@H](CO)NC(=O)[C@H](CO)NC(=O)[C@H](CCCNC(=N)N)NC(=O)[C@@H](NC(=O)[C@H](CC(C)C)NC(=O)[C@H](Cc1ccccc1)NC(=O)[C@H](Cc1c[nH]cn1)NC(=O)[C@H](C)NC(=O)[C@H](CC(C)C)NC(=O)[C@H](CCCNC(=N)N)NC(=O)[C@H](CCC(=O)O)NC(=O)[C@@H](NC(=O)[C@H](C)NC(=O)[C@@H]1CSSC[C@H](NC(=O)[C@H](CCCNC(=N)N)NC(=O)CC[C@H](NC(=O)CCCCCCCCCCCCCCCCCCC(=O)O)C(=O)O)C(=O)NCC(=O)N[C@@H]([C@@H](C)O)C(=O)N[C@@H](C)C(=O)N[C@@H]([C@@H](C)O)C(=O)N1)[C@@H](C)O)[C@@H](C)O`, the EC50 was 9.77e-05 µM (CALCR; cAMP, agonist).
The EC50 of `O=Cc1ccc([N+](=O)[O-])c(OS(=O)(=O)c2ccccc2)c1` is reported as over 1000 µM (YWHAG/RELA, phospho-Ser45 p65 peptide (Homo sapiens, UniProt P61981+Q04206); ternary complex formation, stabilizer, fluorescence anisotropy).
`CC[C@H](C)[C@@H](C(=O)N[C@@H](CC(C)C)C(=O)N[C@@H](CO)C(=O)N[C@@H](CO)C(=O)N[C@H](C(=O)N[C@@H](CC(N)=O)C(=O)N[C@H](C(=O)NCC(=O)N[C@@H](CO)C(=O)N[C@@H](CC(N)=O)C(=O)N[C@H](C(=O)N1CC[C@H]1C(N)=O)[C@@H](C)O)C(C)C)[C@@H](C)O)N(C)C(=O)[C@H](C)NC(=O)CN(C)C(=O)[C@H](Cc1ccccc1)NC(=O)[C@H](CC(N)=O)NC(=O)[C@H](CC(N)=O)NC(=O)[C@H](CO)NC(=O)[C@H](CO)NC(=O)[C@H](CCCNC(=N)N)NC(=O)[C@H](Cc1c[nH]cn1)NC(=O)[C@H](CC(C)C)NC(=O)[C@H](Cc1ccccc1)NC(=O)[C@H](CCC(=O)O)NC(=O)[C@H](C)NC(=O)[C@H](CC(C)C)NC(=O)[C@H](CCCNC(=N)N)NC(=O)[C@H](CCC(N)=O)NC(=O)[C@@H](NC(=O)[C@H](C)NC(=O)[C@@H]1CSSC[C@H](NC(=O)[C@H](CCCNC(=N)N)NC(=O)CC[C@H](NC(=O)CCCCCCCCCCCCCCCCCCC(=O)O)C(=O)O)C(=O)N[C@@H](CC(N)=O)C(=O)N[C@@H]([C@@H](C)O)C(=O)N[C@@H](C)C(=O)N[C@@H]([C@@H](C)O)C(=O)N1)[C@@H](C)O` has an EC50 of 0.000288 µM (CALCR; cAMP, agonist).
For `CSCC[C@H](NC(=O)[C@H](CC(C)C)NC(=O)CNC(=O)[C@H](Cc1ccccc1)NC(=O)[C@H](Cc1ccccc1)NC(=O)[C@@H](N)CCC(N)=O)C(N)=O`, the EC50 was 0.02 µM (TACR1 (Homo sapiens, UniProt P25103, Y287F); agonist; concentration not given).
With `CC(C)C[C@H](NC(=O)[C@H](CCCN)NC(=O)CNC(=O)[C@@H](NC(=O)[C@H](C)NC(=O)[C@@H]1CSCSC[C@H](NC(=O)CC[C@H](N)C(=O)O)C(=O)N[C@@H](CC(N)=O)C(=O)N[C@@H]([C@@H](C)O)C(=O)N[C@@H](C)C(=O)N[C@@H]([C@@H](C)O)C(=O)N1)[C@@H](C)O)C(=O)N[C@@H](C)C(=O)N[C@@H](CCC(=O)O)C(=O)N[C@@](C)(Cc1ccccc1)C(=O)N[C@@H](CC(C)C)C(=O)N[C@H](C(=O)N[C@@H](CCCNC(=N)N)C(=O)N[C@@H](CO)C(=O)N[C@@H](CO)C(=O)N[C@@H](CC(N)=O)C(=O)N(C)[C@@H](CC(N)=O)C(=O)N[C@@H](Cc1ccccc1)C(=O)NCC(=O)N1CCC[C@H]1C(=O)N[C@@H](CCCCNC(=O)CC[C@H](NC(=O)CC[C@H](NC(=O)CCCCCCCCCCCCCCCCCCC(=O)O)C(=O)O)C(=O)O)C(=O)N[C@@H](CC(C)C)C(=O)N1CCC[C@H]1C(=O)N1CCC[C@H]1C(=O)N[C@H](C(=O)N[C@@H](CCC(=O)O)C(=O)N[C@H](C(=O)NCC(=O)N[C@@H](CO)C(=O)N[C@@H](CC(N)=O)C(=O)N[C@H](C(=O)N[C@@H](Cc1ccc(O)cc1)C(N)=O)[C@@H](C)O)C(C)C)[C@@H](C)O)C(C)C` the EC50 was 0.000243 µM (Calcitonin receptor (Rattus norvegicus, UniProt P32214); cAMP, agonist, TR-FRET).
With `Cn1c(=O)n(C2CCC(=O)NC2=O)c2ccc(C3CCN(CC(=O)Nc4cccc(CS(=O)(=O)N5CC[C@H](Nc6cccc(-c7sc(C(=O)O)c(OCC(=O)O)c7Cl)c6)CC5(C)C)c4)CC3)cc21` (stereo partly shown) the EC50 was over 10 µM (PPP1CA (Homo sapiens, UniProt P62136); phosphatase activity; with: DiFMUP substrate).
For `Cc1ncsc1-c1ccc(CNC(=O)[C@@H]2C[C@@H](O)CN2C(=O)[C@@H](NC(=O)C2(F)CC2)C(C)(C)C)c(OCCC2CCN(c3nc(N(C)CCNC(=O)C(C)C)nc(N4CCn5nnc(CO)c5C4)n3)CC2)c1`, the EC50 was 0.759 µM (VHL/BRD9; ternary complex formation, NanoBiT; HEK293T; 2 h, with: MLN4924 2 µM).
For `CC[C@H](C)[C@@H](C(=O)N[C@@H](CC(C)C)C(=O)N[C@@H](CO)C(=O)N[C@@H](CO)C(=O)N[C@H](C(=O)N[C@@H](CCC(=O)O)C(=O)N[C@H](C(=O)NCC(=O)N[C@@H](CO)C(=O)N[C@@H](CC(N)=O)C(=O)N[C@H](C(=O)N1C[C@H](O)C[C@H]1C(N)=O)[C@@H](C)O)C(C)C)[C@@H](C)O)N(C)C(=O)[C@H](C)NC(=O)CN(C)C(=O)[C@H](Cc1ccccc1)NC(=O)[C@H](CO)NC(=O)[C@H](CO)NC(=O)[C@H](CCCNC(=N)N)NC(=O)[C@H](CC(N)=O)NC(=O)[C@H](CC(C)C)NC(=O)[C@H](Cc1ccccc1)NC(=O)[C@H](Cc1c[nH]cn1)NC(=O)[C@H](C)NC(=O)[C@H](CC(C)C)NC(=O)[C@H](CCCNC(=N)N)NC(=O)[C@H](CCC(=O)O)NC(=O)[C@@H](NC(=O)[C@H](C)NC(=O)[C@@H]1CSSC[C@H](NC(=O)[C@H](CCCNC(=N)N)NC(=O)CC[C@H](NC(=O)CCCCCCCCCCCCCCCCCCC(=O)O)C(=O)O)C(=O)NCC(=O)N[C@@H]([C@@H](C)O)C(=O)N[C@@H](C)C(=O)N[C@@H]([C@@H](C)O)C(=O)N1)[C@@H](C)O`, the EC50 was 0.000155 µM (CALCR; cAMP, agonist).
The EC50 of `COc1ccc(Nc2ncnc3ccc(-c4ccc(S(=O)(=O)N5CCOCC5)cc4)cc23)cc1Cl` is reported as 4.8 µM (Leishmania major; intracellular amastigote growth, luciferase; RAW264.7 macrophages).
